Measured values gathered from unrelated publications.
Compare with care: the assays were run in different laboratories.

Cc1ncsc1-c1ccc(C(C)NC(=O)C2CC(O)CN2C(=O)C(NC(=O)CCCCCCCCCCN2CCCC(Nc3ncc(Cl)c(Nc4ccccc4S(=O)(=O)C(C)C)n3)C2)C(C)(C)C)cc1 (centres unmarked) — result for “log2 fold change”: -1.63 (22Rv1; RNA-seq, measured: TECPR2 mRNA; concentration not given; baseline: DMSO).
The fold regulation of CCN(CC)CC(=O)Nc1cccc(-n2cc(-c3ccc4ccc(-c5cn(-c6cccc(NC(=O)CN(CC)CC)c6)nn5)cc4c3)nn2)c1 is reported as 2.66 (RCC4; PCR angiogenesis array, measured: FIGF; 5 x IC50, 6 h, normoxia; baseline: untreated).
With CCN(C(=O)c1cc(F)ccc1Oc1nncnc1N1CCC2(C1)CN([C@H](CCCN(C)CCOC)C(C)C)C2)C(C)C the GI50 was greater than 10 µM (DU-145; cell growth or viability; 7 days).
The IC50 of CNS(=O)(=O)Nc1nccc(Cc2c(C)c3ccc(Oc4ncccc4F)cc3oc2=O)c1F is reported as greater than 1 µM (UMUC3; cell viability; 7 days).
CO[C@@H]1[C@@H](OC(N)=O)[C@@H](O)[C@H](Oc2ccc3c(O)c(NC(=O)c4ccc(O)c(CC=C(C)C)c4)c(=O)oc3c2C)OC1(C)C has a colony survival of 79.5% (HCT-116 BRCA2 wild-type; 150 µM, replicate B; baseline: untreated).
The IC50 of CC(C)c1ccc(N(C)c2ccc3c(c2)OCC[C@H]3CNc2cnccc2C(=O)O)cc1 is reported as no less than 10 µM (HCC827; cell viability, CellTiter-Glo; 7 days).
For Cn1ncc2cc(-c3cncc(Cl)c3N3CCC4(CCNC4=O)CC3)ccc21, “log2 fold change” read 2.01 (LS174T; gene expression, microarray, measured: IGLL1 mRNA; concentration not given, 24 h; baseline: untreated cells).
CN1CCCNC(=O)c2cccc(c2)C(=O)NCCCN(C)CCCNc2cccc3c2C(=O)c2cccc(c2C3=O)NCCC1: “log2 fold change” -1.13 (SAS; RNA-Seq, measured: PIBF1 mRNA; 1 µM, 6 h; baseline: untreated cells).

A few entries again:
The IC50 of CNS(=O)(=O)Nc1nccc(Cc2c(C)c3ccc(Oc4ncccc4F)cc3oc2=O)c1F is reported as greater than 1 µM (UMUC3; cell viability; 7 days).
